Measurements of several laboratories.
A part holds a random share of what one study measured.
UniProt P06239, sequence (whole entry, looked up): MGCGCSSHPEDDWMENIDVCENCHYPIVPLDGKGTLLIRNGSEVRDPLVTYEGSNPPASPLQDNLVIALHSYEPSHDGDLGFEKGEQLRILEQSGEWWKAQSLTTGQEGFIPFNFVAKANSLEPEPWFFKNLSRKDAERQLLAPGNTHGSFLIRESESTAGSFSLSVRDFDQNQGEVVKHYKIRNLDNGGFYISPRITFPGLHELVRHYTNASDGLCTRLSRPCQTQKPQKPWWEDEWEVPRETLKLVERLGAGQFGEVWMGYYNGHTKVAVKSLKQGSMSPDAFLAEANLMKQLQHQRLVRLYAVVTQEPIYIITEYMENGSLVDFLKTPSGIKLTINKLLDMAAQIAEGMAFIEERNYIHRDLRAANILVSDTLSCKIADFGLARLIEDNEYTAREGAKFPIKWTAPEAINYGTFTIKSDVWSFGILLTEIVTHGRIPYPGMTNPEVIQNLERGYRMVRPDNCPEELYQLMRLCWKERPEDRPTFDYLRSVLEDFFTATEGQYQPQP
UniProt P36896, sequence (whole entry, looked up): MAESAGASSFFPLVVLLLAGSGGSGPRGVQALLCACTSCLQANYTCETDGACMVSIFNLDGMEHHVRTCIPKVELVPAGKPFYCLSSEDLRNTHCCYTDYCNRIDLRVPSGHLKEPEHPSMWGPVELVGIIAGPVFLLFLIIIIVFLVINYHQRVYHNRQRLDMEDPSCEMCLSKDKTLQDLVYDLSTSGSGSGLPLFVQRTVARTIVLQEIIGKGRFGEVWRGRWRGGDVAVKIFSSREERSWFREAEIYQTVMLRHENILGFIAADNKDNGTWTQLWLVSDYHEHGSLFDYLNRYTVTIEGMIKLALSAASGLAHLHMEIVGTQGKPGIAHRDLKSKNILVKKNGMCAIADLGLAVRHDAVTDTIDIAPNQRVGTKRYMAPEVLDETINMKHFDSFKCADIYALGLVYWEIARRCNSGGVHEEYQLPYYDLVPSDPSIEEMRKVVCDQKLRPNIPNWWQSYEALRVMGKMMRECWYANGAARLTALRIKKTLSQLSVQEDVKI
UniProt Q13464, sequence (whole entry, looked up): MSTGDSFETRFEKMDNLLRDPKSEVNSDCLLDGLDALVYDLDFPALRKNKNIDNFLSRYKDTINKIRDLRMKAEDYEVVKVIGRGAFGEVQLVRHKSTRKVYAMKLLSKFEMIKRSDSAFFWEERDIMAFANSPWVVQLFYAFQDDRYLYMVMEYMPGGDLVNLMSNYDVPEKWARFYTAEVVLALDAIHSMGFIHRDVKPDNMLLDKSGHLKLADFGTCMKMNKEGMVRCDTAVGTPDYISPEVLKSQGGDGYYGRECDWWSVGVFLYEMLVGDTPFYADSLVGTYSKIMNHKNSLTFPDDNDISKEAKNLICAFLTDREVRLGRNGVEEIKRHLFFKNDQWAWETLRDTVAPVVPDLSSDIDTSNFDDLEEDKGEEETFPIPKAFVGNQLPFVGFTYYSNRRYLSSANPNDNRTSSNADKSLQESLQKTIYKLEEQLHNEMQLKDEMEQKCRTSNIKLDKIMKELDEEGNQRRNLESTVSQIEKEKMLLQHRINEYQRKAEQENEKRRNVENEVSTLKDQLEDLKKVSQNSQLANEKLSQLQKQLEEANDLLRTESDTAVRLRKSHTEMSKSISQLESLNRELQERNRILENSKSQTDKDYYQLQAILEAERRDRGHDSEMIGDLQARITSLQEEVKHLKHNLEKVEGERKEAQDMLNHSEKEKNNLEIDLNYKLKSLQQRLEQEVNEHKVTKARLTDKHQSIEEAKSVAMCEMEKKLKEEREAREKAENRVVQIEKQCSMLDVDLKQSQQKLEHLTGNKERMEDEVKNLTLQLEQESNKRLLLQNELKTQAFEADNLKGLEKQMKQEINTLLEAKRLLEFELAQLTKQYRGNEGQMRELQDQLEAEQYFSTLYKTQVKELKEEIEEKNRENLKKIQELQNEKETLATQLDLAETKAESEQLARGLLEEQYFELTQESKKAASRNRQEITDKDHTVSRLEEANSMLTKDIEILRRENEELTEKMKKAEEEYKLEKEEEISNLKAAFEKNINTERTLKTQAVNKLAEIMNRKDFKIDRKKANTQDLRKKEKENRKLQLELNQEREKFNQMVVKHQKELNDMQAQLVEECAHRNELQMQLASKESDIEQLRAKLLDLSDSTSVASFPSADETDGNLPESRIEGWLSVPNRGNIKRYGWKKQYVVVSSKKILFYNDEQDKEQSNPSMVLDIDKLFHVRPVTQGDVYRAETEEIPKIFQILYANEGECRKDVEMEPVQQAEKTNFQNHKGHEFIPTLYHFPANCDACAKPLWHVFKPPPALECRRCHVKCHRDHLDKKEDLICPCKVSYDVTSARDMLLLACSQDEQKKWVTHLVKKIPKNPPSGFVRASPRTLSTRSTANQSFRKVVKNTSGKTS
UniProt P49137, sequence (whole entry, looked up): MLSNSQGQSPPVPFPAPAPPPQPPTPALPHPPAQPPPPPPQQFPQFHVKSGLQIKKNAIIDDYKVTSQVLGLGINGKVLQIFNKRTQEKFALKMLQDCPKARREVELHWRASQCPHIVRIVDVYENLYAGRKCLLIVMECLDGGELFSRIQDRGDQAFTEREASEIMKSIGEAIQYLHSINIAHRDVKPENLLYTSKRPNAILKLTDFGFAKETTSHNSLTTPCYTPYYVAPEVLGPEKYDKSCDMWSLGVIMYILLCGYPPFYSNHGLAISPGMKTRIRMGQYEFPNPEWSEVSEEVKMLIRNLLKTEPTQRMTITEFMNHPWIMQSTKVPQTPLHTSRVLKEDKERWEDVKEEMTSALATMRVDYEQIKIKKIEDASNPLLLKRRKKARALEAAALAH
UniProt P27361, sequence (whole entry, looked up): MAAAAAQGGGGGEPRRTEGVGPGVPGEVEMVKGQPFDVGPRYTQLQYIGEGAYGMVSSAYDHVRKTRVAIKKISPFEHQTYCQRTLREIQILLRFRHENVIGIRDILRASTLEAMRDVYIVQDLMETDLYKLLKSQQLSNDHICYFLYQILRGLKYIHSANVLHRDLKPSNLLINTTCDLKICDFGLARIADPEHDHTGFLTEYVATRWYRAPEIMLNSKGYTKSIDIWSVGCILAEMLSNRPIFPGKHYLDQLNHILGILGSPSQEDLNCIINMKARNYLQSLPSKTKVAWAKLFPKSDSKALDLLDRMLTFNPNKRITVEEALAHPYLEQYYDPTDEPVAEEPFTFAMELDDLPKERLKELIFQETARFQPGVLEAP
UniProt P22607, sequence (whole entry, looked up): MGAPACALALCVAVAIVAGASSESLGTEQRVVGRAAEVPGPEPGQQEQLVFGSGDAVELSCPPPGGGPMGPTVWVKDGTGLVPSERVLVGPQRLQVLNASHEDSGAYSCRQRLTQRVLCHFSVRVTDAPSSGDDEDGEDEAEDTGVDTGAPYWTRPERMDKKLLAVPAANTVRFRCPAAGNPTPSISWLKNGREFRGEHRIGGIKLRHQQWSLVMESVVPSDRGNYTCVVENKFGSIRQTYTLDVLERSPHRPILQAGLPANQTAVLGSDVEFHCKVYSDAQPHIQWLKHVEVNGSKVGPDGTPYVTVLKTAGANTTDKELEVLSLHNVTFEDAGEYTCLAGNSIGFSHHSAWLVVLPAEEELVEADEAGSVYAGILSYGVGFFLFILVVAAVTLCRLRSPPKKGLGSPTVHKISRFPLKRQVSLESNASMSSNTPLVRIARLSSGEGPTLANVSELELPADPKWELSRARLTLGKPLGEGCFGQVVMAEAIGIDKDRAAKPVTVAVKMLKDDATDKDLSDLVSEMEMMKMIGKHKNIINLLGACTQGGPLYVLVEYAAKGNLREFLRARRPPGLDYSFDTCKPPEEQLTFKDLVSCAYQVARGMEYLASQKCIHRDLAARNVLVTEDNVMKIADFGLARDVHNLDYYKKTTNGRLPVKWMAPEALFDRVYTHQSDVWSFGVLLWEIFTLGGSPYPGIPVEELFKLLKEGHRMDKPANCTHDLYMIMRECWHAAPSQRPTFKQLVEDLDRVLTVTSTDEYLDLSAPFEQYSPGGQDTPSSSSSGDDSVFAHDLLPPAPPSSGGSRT
UniProt Q13976, sequence (whole entry, looked up): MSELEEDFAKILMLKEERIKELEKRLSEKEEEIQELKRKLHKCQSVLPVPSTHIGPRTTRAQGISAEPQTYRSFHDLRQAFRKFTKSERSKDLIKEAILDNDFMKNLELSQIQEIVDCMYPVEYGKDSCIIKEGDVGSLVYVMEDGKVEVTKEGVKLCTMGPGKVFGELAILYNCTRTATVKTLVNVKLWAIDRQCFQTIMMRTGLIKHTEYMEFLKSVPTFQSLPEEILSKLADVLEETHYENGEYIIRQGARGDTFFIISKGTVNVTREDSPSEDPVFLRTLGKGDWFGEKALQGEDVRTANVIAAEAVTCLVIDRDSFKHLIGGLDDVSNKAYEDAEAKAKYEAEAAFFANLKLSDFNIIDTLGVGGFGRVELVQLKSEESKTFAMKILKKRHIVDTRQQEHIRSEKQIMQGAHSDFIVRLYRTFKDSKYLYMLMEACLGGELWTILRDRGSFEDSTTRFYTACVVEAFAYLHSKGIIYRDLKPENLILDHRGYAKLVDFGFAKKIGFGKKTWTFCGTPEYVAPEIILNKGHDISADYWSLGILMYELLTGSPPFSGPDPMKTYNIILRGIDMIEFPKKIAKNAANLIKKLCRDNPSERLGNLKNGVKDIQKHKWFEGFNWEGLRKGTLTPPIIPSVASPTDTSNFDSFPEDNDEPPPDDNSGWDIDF

Block 1
Host: human
Medium: microsomes or S9
Concentration: 2 µM
Time: 0.5 h
For `COC(=O)c1cc(I)c(N)c(I)c1C`, the remaining compound was 11.9%.
With `COc1cc(OC)cc(-c2nnc(SCC(=O)NC3CC4CCC3C4)[nH]2)c1` (centres unmarked) the remaining compound was 1.84%.
The remaining compound of `O=C(c1c(OCC2CC2)cc(=O)n2c1CCOCC2)N1CCN(C2CCCCC2)CC1` is reported as 59.4%.
For `Cc1ncc(-c2ccc(C)c(S(=O)(=O)NC(C)(C)C)c2)o1`, the remaining compound was 46%.
With `COc1ccccc1CNC(=O)c1c(OC)cc(=O)n2c1CCCC2` the remaining compound was greater than 99%.

Block 2
Compound: CCCCc1c(-c2ccc(OC)cc2)[nH]c2nccnc12
Observed: enzyme activity
Mode: inhibitor
Concentration: 0.5 µM
Reference: control
The remaining activity was 86.5% (FRK (Homo sapiens, UniProt P42685)).
For MST1R (Homo sapiens, UniProt Q04912): remaining activity read 104%.
It gave 85% for remaining activity (LCK (Homo sapiens, UniProt P06239)).
The remaining activity was 89.2% (CSNK1G3 (Homo sapiens, UniProt Q9Y6M4)).
CSNK1G2 (Homo sapiens, UniProt P78368) — remaining activity: 92.5%.
It gave 91.9% for remaining activity (EPHA3 (Homo sapiens, UniProt P29320)).
FGFR3 (Homo sapiens, UniProt P22607) — remaining activity: 86.8%.
The remaining activity was 111% (MAPK3 (Homo sapiens, UniProt P27361)).
For GRK7 (Homo sapiens, UniProt Q8WTQ7): remaining activity read 94.1%.
For MAPKAPK2 (Homo sapiens, UniProt P49137): remaining activity read 90.2%.
MERTK (Homo sapiens, UniProt Q12866) — remaining activity: 92.6%.
ACVR1B (Homo sapiens, UniProt P36896) — remaining activity: 112%.
It gave 95% for remaining activity (MAP3K5 (Homo sapiens, UniProt Q99683)).
JAK3 (Homo sapiens, UniProt P52333) — remaining activity: 92.8%.

Block 3
Target: Centromere-binding protein 1, full length, His-tagged (CBF1, Saccharomyces cerevisiae, UniProt P17106, residues 1-351)
UniProt P17106, sequence (whole entry, looked up): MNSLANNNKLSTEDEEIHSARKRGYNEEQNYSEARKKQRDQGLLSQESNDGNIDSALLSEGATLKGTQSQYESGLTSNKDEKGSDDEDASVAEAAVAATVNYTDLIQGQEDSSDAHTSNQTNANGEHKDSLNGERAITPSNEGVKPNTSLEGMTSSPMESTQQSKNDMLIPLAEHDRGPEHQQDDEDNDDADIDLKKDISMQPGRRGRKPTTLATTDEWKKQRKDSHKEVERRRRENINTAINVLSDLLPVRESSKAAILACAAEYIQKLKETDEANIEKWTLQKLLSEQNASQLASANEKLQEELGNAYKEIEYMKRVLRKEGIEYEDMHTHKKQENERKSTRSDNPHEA
Method: competition protein-binding microarray
Molecule type: double-stranded DNA, one strand shown
Medium: in vitro
Concentration: 2 µM
Setting: whole 60-bp probe, lowest competitor level
With: Pho4 competitor, 0.05 µM
Direction: higher = stronger binding
The fluorescence intensity of `CGTCCTAGTGATTGGTCAGTGGGTGCCATGAGGAAGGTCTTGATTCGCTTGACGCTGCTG` is reported as 87.6 a.u.
`TGCGCAACAACTTGTACAGTGGGTGTATGTCTAGAAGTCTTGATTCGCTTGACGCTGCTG` has a fluorescence intensity of 70.4 a.u.
For `GATGGTATACGCCGTCACGTCTTTTACAATGAAGTGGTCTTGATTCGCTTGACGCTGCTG`, the fluorescence intensity was 264 a.u.
`TTTCCTCTCCTTCTCTGCGTGCTTTCAAATCTAATTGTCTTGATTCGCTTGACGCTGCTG` has a fluorescence intensity of 63.6 a.u.
With `CCTTTGCAGTAGCATCACATGAATCGCGAAAGTCTAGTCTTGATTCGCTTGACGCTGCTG` the fluorescence intensity was 261 a.u.
For `GAATAGGGATATCTGCACATGGGGCCTCGAGCATGGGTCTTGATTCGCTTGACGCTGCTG`, the fluorescence intensity was 91.2 a.u.
The fluorescence intensity of `AAATTACTAAGTTTTCACGTGCCGTACCCCGTATGAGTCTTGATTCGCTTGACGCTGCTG` is reported as 1230 a.u.
`CGGGGTTAAGTTTGTCACTGTACTTGCTTGCAGCAGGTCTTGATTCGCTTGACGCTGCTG` has a fluorescence intensity of 60.4 a.u.

Block 4
SMILES: O=C(Nc1cnc(Oc2ccc(F)cc2)nc1)N1CCc2ncccc2[C@@H]1c1ccc(F)cc1
Observed: cell-free assay
Method: competition with immobilised ligand
Concentration: 1 µM
The remaining binding was 100% (ROCK1 (Homo sapiens, UniProt Q13464)).
The remaining binding was 100% (KIT (Homo sapiens, UniProt P10721)).
The remaining binding was 89% (PRKG1 (Homo sapiens, UniProt Q13976)).
CDKL1 (Homo sapiens, UniProt Q00532) — remaining binding: 100%.

Single results of other studies
`CC(=O)N[C@@H](Cc1c[nH]c2ccccc12)C(=O)N[C@@H](CCC(=O)C=[N+]=[N-])C(=O)OC(C)C` has a tumour volume of 0 mm3 (mice, MC-38 tumour rechallenge; 1 mg/kg, day 18 after injection).

A few entries again (block 3):
With `CCTTTGCAGTAGCATCACATGAATCGCGAAAGTCTAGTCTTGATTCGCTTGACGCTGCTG` the fluorescence intensity was 261 a.u.
For `GAATAGGGATATCTGCACATGGGGCCTCGAGCATGGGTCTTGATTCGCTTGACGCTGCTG`, the fluorescence intensity was 91.2 a.u.
The fluorescence intensity of `AAATTACTAAGTTTTCACGTGCCGTACCCCGTATGAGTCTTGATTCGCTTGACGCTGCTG` is reported as 1230 a.u.
